# Results pooled from the literature.
# Lines come from different studies, so protocols differ.
# CHEK1: Serine/threonine-protein kinase Chk1 (CHEK1, Homo sapiens, UniProt O14757)
# PIK3CG: Phosphatidylinositol 4,5-bisphosphate 3-kinase catalytic subunit gamma isoform (PIK3CG, Homo sapiens, UniProt P48736)
# Chymotrypsinogen A: Chymotrypsinogen A (Bos taurus, UniProt P00766)
# Proteasome subunit beta type-3/PSMB7: Proteasome subunit beta type-3/PSMB7 (Homo sapiens, UniProt P49720+Q99436)
# PPARA ligand-binding domain: Peroxisome proliferator-activated receptor alpha, ligand-binding domain (PPARA, Homo sapiens, UniProt Q07869)
# GBA2: Beta-glucosidase (GBA2, Homo sapiens, UniProt Q9HCG7)
# Sensor histidine kinase AirS: Sensor histidine kinase AirS (Staphylococcus aureus, UniProt Q2FX96)
# CYP2C8: Cytochrome P450 2C8 (CYP2C8, Homo sapiens, UniProt P10632)
Structure (SMILES),target,assay,system,conditions,IC50 [nM]
COc1cc(-c2ccc3c(c2)Nc2ccc(C(=O)N4CCCC4CO)cc2NC3=O)ccc1O (stereo not drawn),CHEK1,"enzyme activity, inhibitor",,,37.8
Cc1nc(Nc2ccc3c(c2)/C(=C/c2ccccc2)C(=O)N3)c2ccccc2n1,PIK3CG,"enzyme activity, inhibitor, ADP detection",,,520
Cn1cncc1[C@@]1(N)c2ccc(C#N)c(c2)COc2cccc(c2)-c2cc(C#N)nc3ccc1cc23,"Geranylgeranyl transferase type I (Homo sapiens, UniProt P49354+P53609)","enzyme activity, inhibitor",,,> 1000
C[C@H](NC(=O)C(C(F)(F)F)C(F)(F)F)c1ccccc1,Chymotrypsinogen A,"enzyme activity, inhibitor, fluorescence",,,> 100000
COCCN(C)CC(=O)NC(Cc1ccc(-c2ccccc2)cc1)B(O)O (stereo not drawn),Proteasome subunit beta type-3/PSMB7,"β2c trypsin-like activity, inhibitor",,"constitutive proteasome, added: Ac-KQL-AMC",> 10000
Cc1c(Cc2cc(Cl)cc(OC(C)C(=O)O)c2)c2ccc(C(=O)NC(C)c3ccc(C(C)(C)C)cc3)cc2n1C(C)C (stereo not drawn),PPARA ligand-binding domain,"reporter gene, luciferase reporter","HEK293T, Gal4-PPARα LBD",,1130
CC(C)=CCOCCCCCN1C[C@H](O)[C@@H](O)[C@H](O)[C@@H]1CO,GBA2,"inhibitor, 4MU-β-D-glucopyranoside",HEK293T homogenates overexpressing GBA2,,5.8
COc1ccc(N(C)C2=C(c3ccccc3)C(=O)NC2=O)cc1,Sensor histidine kinase AirS,"autophosphorylation, inhibitor, BODIPY-FL-ATPγS in-gel fluorescence",,lower bound of confidence interval,> 41000
Cc1ccc(S(=O)(=O)N2CC(NC(=O)c3ccc(F)cc3)C2=O)cc1 (stereo not drawn),Chymotrypsinogen A,"enzyme activity, inhibitor, fluorescence",,,189000
Nc1ncnc2c1c(-c1ccc(Oc3ccccc3)cc1)cn2C1CCCC1,"Receptor tyrosine-protein kinase erbB-3 (ERBB3, Homo sapiens, UniProt P21860)","cell-free assay, TR-FRET",,,85
O=C(COc1ccc2ccccc2c1)NCc1ccc(OP(=O)(O)O)cc1,"Signal transducer and activator of transcription 5A, SH2 (Homo sapiens, UniProt P42229)","ligand displacement, FP",,,81000
COc1cc(/C=C/C(=O)Oc2cc(C(F)(F)F)ccc2C(F)(F)F)ccc1O,"3-oxo-5-alpha-steroid 4-dehydrogenase 1 (SRD5A1, Homo sapiens, UniProt P18405)","enzyme activity in cells, inhibitor",,,8500
Cc1c(Cc2ccc(Cl)c(OC(C)C(=O)O)c2)c2ccc(C(=O)NC(C)c3cc(F)cc(C(C)(C)C)c3)cc2n1C (stereo not drawn),PPARA ligand-binding domain,"reporter gene, luciferase reporter","HEK293T, Gal4-PPARα LBD",,> 100000
O=C1/C(=N\c2ccc(Cl)cc2Br)c2ccccc2N1Cc1ccccc1 (mixture of isomers),PIK3CG,"enzyme activity, inhibitor, ADP detection",,,16.4
O=C(Nc1ccccc1O)C(C(F)(F)F)C(F)(F)F,Chymotrypsinogen A,"enzyme activity, inhibitor, fluorescence",,,38000
N#Cc1ccc(-c2ccc(COCCCCCN3C[C@H](O)[C@@H](O)[C@H](O)[C@H]3CO)cc2)cc1,GBA2,"inhibitor, 4MU-β-D-glucopyranoside",HEK293T homogenates overexpressing GBA2,,3
Cc1nn(-c2cccc(N)c2)c(=O)c2cnc(Nc3ccc(N4CCNCC4)cc3)nc12,"G protein-coupled receptor kinase 4 (GRK4, Homo sapiens, UniProt P32298)","enzyme activity, inhibitor",,,2440
Cc1c(Cc2cc(Cl)cc(O[C@@H](C)C(=O)O)c2)c2ccc(C(=O)N[C@@H](C)c3ccc(C(C)(C)C)cc3)cc2n1CC1CCC1,PPARA ligand-binding domain,"reporter gene, luciferase reporter","HEK293T, Gal4-PPARα LBD",,> 100000
O=C(CCCCCN1C[C@H](O)[C@@H](O)[C@H](O)[C@H]1CO)NC12CC3CC(CC(C3)C1)C2,GBA2,"inhibitor, 4MU-β-D-glucopyranoside",HEK293T homogenates overexpressing GBA2,,9
Cc1c(Cc2cccc(OC(C)(C)C(=O)O)c2)c2ccc(C(=O)NCc3ccc(C(C)(C)C)cc3)cc2n1CC1CCC1,PPARA ligand-binding domain,"reporter gene, luciferase reporter","HEK293T, Gal4-PPARα LBD",,250
CC(C)C[C@H](NC(=O)[C@H](Cc1ccccc1)NC(=O)[C@H](CCCNC(=N)N)NC(=O)[C@H](C)N)B(O)O,Proteasome subunit beta type-3/PSMB7,"trypsin-like activity, inhibitor",human proteasome 10 nM,added: Boc-LRR-AMC,45
O=C(Nc1ccc(Cl)cc1)Nc1ccc(C2=NNC(c3ccc(NC(=O)Nc4ccc(Cl)cc4)cc3)C2)cc1 (stereo not drawn),"Advanced glycosylation end product-specific receptor (AGER, Homo sapiens, UniProt Q15109)",,,,22000
CC(=O)NCCOc1ccccc1NC(=O)C(C(F)(F)F)C(F)(F)F,Chymotrypsinogen A,"enzyme activity, inhibitor, fluorescence",,,90000
OC[C@@H]1[C@@H](O)[C@H](O)[C@@H](O)CN1CCCCCOCc1ccc(-c2ccc(C(F)(F)F)cc2)cc1,GBA2,"inhibitor, 4MU-β-D-glucopyranoside",HEK293T homogenates overexpressing GBA2,,1
Cc1c(Cc2cccc(OC(C)(C)C(=O)O)c2)c2ccc(C(=O)N[C@@H](C)c3cccc(C4CC4)c3)cc2n1C,PPARA ligand-binding domain,"reporter gene, luciferase reporter","HEK293T, Gal4-PPARα LBD",,3170
CC(C)c1ccc(COc2ccc(Cl)cc2NC(=O)Nc2cnc(C#N)cn2)cc1,CHEK1,"enzyme activity, inhibitor",,,6050
COc1c(Cl)cccc1Nc1c(-c2ccncc2C#C[C@@]2(C)CCCN2C(=O)/C=C/CN(C)C)[nH]c2c1C(=O)NCC2,"Citron Rho-interacting kinase (CIT, Homo sapiens, UniProt O14578)",,,,51
O=C(NCc1ccccc1)c1ccccc1NC(=O)C(C(F)(F)F)C(F)(F)F,Chymotrypsinogen A,"enzyme activity, inhibitor, fluorescence",,,15000
COc1ccc2c(c1)N(C1=C(c3ccc(F)cc3)C(=O)NC1=O)CC2,Sensor histidine kinase AirS,"autophosphorylation, inhibitor, BODIPY-FL-ATPγS competition",,,> 151000
OC[C@H]1[C@@H](O)[C@H](O)[C@@H](O)CN1CCCCCOCc1ccccc1,GBA2,"inhibitor, 4MU-β-D-glucopyranoside",HEK293T homogenates overexpressing GBA2,,3
Cc1c(Cc2ccc(OC(C)C(=O)O)cc2)c2ccc(C(=O)N[C@@H](C)c3cccc(C(C)(C)C)c3)cc2n1C (stereo partly drawn),PPARA ligand-binding domain,"reporter gene, luciferase reporter","HEK293T, Gal4-PPARα LBD",,1730
COc1cc(/C=C/c2n[nH]c(-[c-]3cccc3)c2C)ccc1O.[Fe+2].c1cc[cH-]c1,"Amyloid-beta precursor protein (APP, Homo sapiens, UniProt P05067)","amyloid aggregation, inhibitor, fluorescence",,pH 6.9,16600
CCCCCCCCCCCCCC(=S)NCCCC[C@H](NS(C)(=O)=O)C(=O)N[C@H](C)C(=O)N[C@@H](CCCNC(=N)N)C(N)=O,"NAD-dependent protein deacetylase sirtuin-2 (SIRT2, Homo sapiens, UniProt Q8IXJ6)","enzyme activity, inhibitor, HPLC",,,22
CCCCCCCCN1C[C@H](O)[C@@H](O)[C@H](O)[C@H]1CO,GBA2,"inhibitor, 4MU-β-D-glucopyranoside",HEK293T homogenates overexpressing GBA2,,20
Nc1ncc2c(n1)-c1c([nH]c3ccc(-c4ccc(F)cc4)cc13)CC2,"Phosphatidylinositol 5-phosphate 4-kinase type-2 gamma (PIP4K2C, Homo sapiens, UniProt Q8TBX8)","target engagement in cells, BRET",,,29
Cc1c(O)cc(O)c2c1OC(c1ccc(O)cc1)CC2=O (stereo not drawn),"Polyunsaturated fatty acid 5-lipoxygenase (ALOX5, Homo sapiens, UniProt P09917)","enzyme activity, inhibitor",,,> 10000
OC[C@@H]1[C@@H](O)[C@H](O)[C@@H](O)CN1CCCCCOCC1CCC1,GBA2,"inhibitor, 4MU-β-D-glucopyranoside",HEK293T homogenates overexpressing GBA2,,9
COc1ccccc1CNC(=O)C(C(F)(F)F)C(F)(F)F,Chymotrypsinogen A,"enzyme activity, inhibitor, fluorescence",,,11000
Cc1ccc(-c2nn(-c3ccc(S(C)(=O)=O)cc3)cc2/C=N/N=C2/NC(=O)CS2)cc1,"Epidermal growth factor receptor (EGFR, Homo sapiens, UniProt P00533)","enzyme activity, inhibitor",,,226
CCC1(CC)CC(=O)N(C2c3cc(C(=O)NC4c5ccccc5CC4O)ccc3OC2(C)COC)C(=N)N1 (stereo not drawn),CYP2C8,"enzyme activity, inhibitor",,,> 20000
Cc1c(Cc2ccc(OC(C)C(=O)O)cc2Cl)c2ccc(C(=O)NC(C)c3ccc(C(C)(C)C)cc3)cc2n1C (stereo not drawn),PPARA ligand-binding domain,"reporter gene, luciferase reporter","HEK293T, Gal4-PPARα LBD",,34000
CCN(CC)CC(=O)Nc1cccc(-n2cc(-c3ccc4ccc(-c5cn(-c6cccc(NC(=O)CN(CC)CC)c6)nn5)cc4c3)nn2)c1,"Mitogen-activated protein kinase kinase kinase 8 (MAP3K8, Homo sapiens, UniProt P41279)","enzyme activity, inhibitor",,,> 10000
Cc1[nH]nc2c1N=C(c1ccccc1Cl)c1cnc(N3CCOCC3)cc1N2,CYP2C8,"enzyme activity, inhibitor","human, liver microsomes",,6760
O=C(O)/C=C\C(=O)c1ccc(O)cc1,"Beta-1,4-galactosyltransferase 1 (B4GALT1, Homo sapiens, UniProt P15291)","enzyme activity, inhibitor",,,13100
CCOc1ccccc1NC(=O)C(C(F)(F)F)C(F)(F)F,Chymotrypsinogen A,"enzyme activity, inhibitor, fluorescence",,,30000
CCCCCCN1C[C@H](O)[C@@H](O)[C@H](O)[C@@H]1CO,GBA2,"inhibitor, 4MU-β-D-glucopyranoside",HEK293T homogenates overexpressing GBA2,,140
O=C(Nc1cccnc1)c1ccccc1NC(=O)C(C(F)(F)F)C(F)(F)F,Chymotrypsinogen A,"enzyme activity, inhibitor, fluorescence",,,6200
CN(C)c1ccc(/N=N/c2ccc(C(=O)NCCCCN)cc2)cc1,"Islet amyloid polypeptide (IAPP, Homo sapiens, UniProt P10997)","ThT displacement, ThT fluorescence",,"pH 7.4, preformed target-ThT complex, added: 5 µM ThT",3000

# Some of these lines once more:
Structure (SMILES),target,assay,system,conditions,IC50 [nM]
O=C1/C(=N\c2ccc(Cl)cc2Br)c2ccccc2N1Cc1ccccc1 (mixture of isomers),PIK3CG,"enzyme activity, inhibitor, ADP detection",,,16.4
O=C(CCCCCN1C[C@H](O)[C@@H](O)[C@H](O)[C@H]1CO)NC12CC3CC(CC(C3)C1)C2,GBA2,"inhibitor, 4MU-β-D-glucopyranoside",HEK293T homogenates overexpressing GBA2,,9
